{"data": "Published values gathered from unrelated publications", "note": "A part holds a random share of what one study measured. Changes are numbered by the printed parent chain."}
{"data": "Sample 1", "target": "RNA binding protein fox-1 homolog 2, RRM domain, GST-SBP tag (RBFOX2, Homo sapiens, UniProt O43251-10, residues 100-194)", "technique": "RNA Bind-n-Seq", "molecule type": "RNA", "sample": "in vitro", "concentration": "365 nM", "notes": "natural RNA segment, single round, ends assumed", "reference": "no-protein control", "reading": "higher = stronger binding", "Construct (chain)": "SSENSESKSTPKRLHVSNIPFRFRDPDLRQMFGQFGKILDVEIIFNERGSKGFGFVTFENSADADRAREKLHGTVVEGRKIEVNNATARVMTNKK"}
{"Oligonucleotide": "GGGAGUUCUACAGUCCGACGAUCCUGGCCUGCUCUUUGGUACCAGCUGUGACUUUUCAGUUUCUCCUGCUUUGAGGUUGUUCACGAAACUAGAAAUGUCAUUCCAGCUUGAUUGUUUUAUCAUCAGCCAAGUUUGGAAUUCUCGGGUGCCAA", "RBNS enrichment (R)": 0.823}
{"Oligonucleotide": "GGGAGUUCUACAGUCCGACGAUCCAACUUCAGAAAUCUUGAAGGCAGGCGCAAACGGGCAUAAAUUCCAGGGACCACUGGGUGAGAGAGGAAUAAGGCCCAGAGCGAGGAAAGGAUUUUACCAAAGCAUCAAUUGGAAUUCUCGGGUGCCAA", "RBNS enrichment (R)": 2.43}
{"Oligonucleotide": "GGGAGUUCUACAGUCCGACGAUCGAUACAGGGUGAAAUAAAGUCUUGUCUUAGAAACCAGGACCCUAAACCCCACACUAUGUAAUAGAAACACAUGUGUUUUUAUGUCUCAAAUAAAACUAUUAUAUCACUUGUGGAAUUCUCGGGUGCCAA", "RBNS enrichment (R)": 0.317}
{"Oligonucleotide": "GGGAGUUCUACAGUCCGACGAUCCUGGGCACAGCUCUGCGUUGCUCCCGUGCUGCCUGCGCCAGCCCCAGGCUGCUGAGGAGCAGAGGCCAGACCAGGGCCGAUCUGGGUGUCCUGACCCUCAGCUGGCCCUGUGGAAUUCUCGGGUGCCAA", "RBNS enrichment (R)": 0.215}
{"Oligonucleotide": "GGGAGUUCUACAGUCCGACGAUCUUUUUCACAGAACUGGUGUCAGGAAUCACUGAAGGGCUAACCGUGAUAGUCCUUGCAAGUAAGUCAAGGUUUUAUCCUGAUUGGAAAUAGAAGACAUUUCCGGUUGAGAGUGGAAUUCUCGGGUGCCAA", "RBNS enrichment (R)": 0.534}
{"Oligonucleotide": "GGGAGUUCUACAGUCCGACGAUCGACAUUGUCUUCUACUGUUCUGCCAGGUUCUUCUUGAGCUUUGGGCCUCAGUUGCCCUGGCAGAAAAAUGGAUUCAACUUGGCCUUUCUGAAGGCAAGACUGGGAUUGGAUGGAAUUCUCGGGUGCCAA", "RBNS enrichment (R)": 0.456}
{"Oligonucleotide": "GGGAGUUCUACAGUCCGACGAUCGAGCUAUUUCCUAACGCAGAAGGAAUUUGUUGUUACUUUUUGGAUUGUACUCUUCUAGGCUGGACCGAAUUCAUAUGCAGAUUGAAGUGAGACCUGCUCUUUACAGAUGGUGGAAUUCUCGGGUGCCAA", "RBNS enrichment (R)": 0.645}
{"Oligonucleotide": "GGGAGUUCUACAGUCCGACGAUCUUUUCUGUUAACAGGAAAAUUUAUUUAUUUGACAGGAUUUUAAGUAAUGUAGGAAUACAAAUGGUAAAUUAGCAGCACAUAUAAUUUUUUUUAAAUUUAUGAUCCAUUUUUGGAAUUCUCGGGUGCCAA", "RBNS enrichment (R)": 1.7}
{"Oligonucleotide": "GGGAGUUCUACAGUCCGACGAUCGUUCACCCUUGAAAACGUUAAUCUGAGGACUUUUUCCACCAACUCAUUAAUGAUGGUGGAAGCAAGUGUAUUAUUUGUUUCCUGGAGAAUUUGAUGAAGAGCAGUCUUCCUGGAAUUCUCGGGUGCCAA", "RBNS enrichment (R)": 0.285}
{"Oligonucleotide": "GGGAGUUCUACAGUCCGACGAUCCCAAACAGACGCUCACAGUGGAGGCUUAUCAAGGGUUGCAUUGGGGAAGAAGCCUCUCCCUCUCUGUCAGCACCAGCUGGUAAAGGUGACUGUACAGAUGUGCAUUUUCCUGGAAUUCUCGGGUGCCAA", "RBNS enrichment (R)": 1.19}
{"Oligonucleotide": "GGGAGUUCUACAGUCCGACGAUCCAACUUUGCCUUUUAUGUAUUCUUACAUAGUUUCCUCUUGAAGAAAAAAAAAGCAGAGUUUUUGUUUUUCAACCCUUUAUGUUUGUUUUGUUUUAUUCUUAAAUAAGCAAUGGAAUUCUCGGGUGCCAA", "RBNS enrichment (R)": 0.766}
{"Oligonucleotide": "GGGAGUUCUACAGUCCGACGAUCUGUAUUUGUAGUUGUUUCUUUCAAAAACAAUUUUUAAAAAUUGGAAAGGGAUAUAUAUGAGAAGUGAUUACUCCAAAGAAUAUUAAUCUUAAAAGAAAGCAGUAUAGAUGUGGAAUUCUCGGGUGCCAA", "RBNS enrichment (R)": 0.618}
{"data": "Sample 2", "target": "ATF1, bZIP domain (human)", "technique": "DHFR protein complementation", "sample": "yeast", "notes": "single substitutions, most at no-binding floor", "reference": "wild-type JUN-FOS pair", "reading": "higher = stronger binding", "starting sequence": "JUN, bZIP domain (human); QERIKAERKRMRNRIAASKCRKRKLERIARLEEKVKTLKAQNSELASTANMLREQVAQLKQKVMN; partner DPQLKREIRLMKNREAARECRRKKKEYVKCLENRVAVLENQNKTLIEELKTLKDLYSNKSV"}
{"Variant": "T37C", "binding fitness [natural log]": -1.41}
{"Variant": "A40T", "binding fitness [natural log]": -1.52}
{"Variant": "E44W", "binding fitness [natural log]": -1.51}
{"Variant": "V56A", "binding fitness [natural log]": -1.5}
{"Variant": "V35Q", "binding fitness [natural log]": -1.6}
{"Variant": "L45E", "binding fitness [natural log]": -1.57}
{"Variant": "E44Y", "binding fitness [natural log]": -1.48}
{"Variant": "E54T", "binding fitness [natural log]": -1.56}
{"Variant": "A40S", "binding fitness [natural log]": -1.44}
{"Variant": "L38Q", "binding fitness [natural log]": -1.45}
{"Variant": "S47W", "binding fitness [natural log]": -1.5}
{"Variant": "L59S", "binding fitness [natural log]": -1.51}
{"Variant": "E54C", "binding fitness [natural log]": -1.48}
{"Variant": "A29P", "binding fitness [natural log]": -1.5}
{"Variant": "S43P", "binding fitness [natural log]": -1.48}
{"data": "Sample 3", "target": "RING finger protein unkempt homolog, zinc fingers 1-6, GST-SBP tag (UNK, Homo sapiens, UniProt Q9C0B0, residues 30-357)", "technique": "RNA Bind-n-Seq", "molecule type": "RNA", "sample": "in vitro", "concentration": "not given", "notes": "RNA with constant flanks, ends assumed", "reference": "input RNA pool", "reading": "higher = stronger binding", "sequence of UniProt Q9C0B0 (30-357, looked up)": "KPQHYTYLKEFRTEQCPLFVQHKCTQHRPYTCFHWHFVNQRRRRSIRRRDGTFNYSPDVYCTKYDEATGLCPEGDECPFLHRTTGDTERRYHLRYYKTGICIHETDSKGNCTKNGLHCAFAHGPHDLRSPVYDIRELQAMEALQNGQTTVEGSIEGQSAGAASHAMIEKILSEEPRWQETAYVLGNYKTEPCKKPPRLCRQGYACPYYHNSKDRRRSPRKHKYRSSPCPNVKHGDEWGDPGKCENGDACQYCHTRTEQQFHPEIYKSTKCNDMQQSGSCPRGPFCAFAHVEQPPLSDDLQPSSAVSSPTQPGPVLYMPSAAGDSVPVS"}
{"Oligonucleotide": "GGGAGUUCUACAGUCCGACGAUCUUUAUAAGUCCAGAGUCUGGUUUUUAACAAGCUGUUCUUCAGUAUUCAGCUUAAGACCGGCAACUCUUUUCUGUACAUAGUGUACAUUACAACUAAAAGUAAUGGGAAACACUGUAUUUUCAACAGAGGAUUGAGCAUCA", "bound/input enrichment": "0.166 ratio"}
{"Oligonucleotide": "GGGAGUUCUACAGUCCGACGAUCCAUGCAGCUGUCUUUGUUUUGUUCUUGGUAGCUGUUACUGCUACAUGUUUACAGUACUUUCCGUUUUAAUUUCGAAGUAAGCUUUUCUGACAGACAUUUUGCAACAACUUGACUGUUGUACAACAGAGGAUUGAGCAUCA", "bound/input enrichment": "0.201 ratio"}
{"Oligonucleotide": "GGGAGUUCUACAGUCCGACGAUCCCACUAUCAGAAACAGAAAUGGCUCUGGGCAAGGAUGUGACUCCACCUCCAGAAACAGAAGCCGUUCUCAUCAAGAACGUAUGUCUGCCUCCAGAAAUGGAGGUGGCCCUGACUGAGGAUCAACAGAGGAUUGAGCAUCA", "bound/input enrichment": "0.1 ratio"}
{"Oligonucleotide": "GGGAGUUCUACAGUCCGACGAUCAUAAGCCCUGAUUCUGGUUUUUAACAAGCUGUUUGUUCAUCUAUAUUUAGUUUAAAACCGGCCGUAUUAUCUUUCUGUACAUAGUGUACAUUACAACUAAAAGUGAUGGAAAAAUACUGUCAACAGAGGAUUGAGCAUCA", "bound/input enrichment": "0.428 ratio"}
{"Oligonucleotide": "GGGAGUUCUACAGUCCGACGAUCGGACUUGAACAACUCACCAAGUCUCCAGUGGAAUUUGUAGAAUAUAACAAAAUGCAGCUCCGCAGGAUAUAUCCAAAAGGAACACGUGUGGAUUCAUCCAACUAUAUGCCUCAGCUCUUCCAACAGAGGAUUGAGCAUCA", "bound/input enrichment": "0.133 ratio"}
{"Oligonucleotide": "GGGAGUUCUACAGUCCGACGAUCUCUCAUUGUCUCACACUCUGACAAGAGUGAGUUAUUAUUUUUUUCUUUUUUACAUUUUGUACCGAGACAAAUUCAUUUAAACAAACUUAUUAUUAUUAUUAUUUUUUACAAAAUAUAUAUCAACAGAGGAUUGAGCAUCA", "bound/input enrichment": "46.4 ratio"}
{"Oligonucleotide": "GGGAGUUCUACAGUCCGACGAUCUUUUUUUUAAAUUUUUUUAUUUUCUUUUUGUUUGUUUCGUUUUGGGGAGGGGUAAAAGUUCUCCGCACAAGUGUUUUACAUAAUUUGUACCAAAAAAAUUACACACAAAAAAAAAAAAAGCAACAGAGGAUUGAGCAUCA", "bound/input enrichment": "1.08 ratio"}
{"data": "Sample 4", "target": "CCNE2, cyclin fold, Cln2 fusion (human)", "technique": "yeast growth competition, sequencing", "sample": "yeast", "notes": "weak parent motif", "reference": "not given", "reading": "higher = stronger binding", "starting sequence": "SLBP docking peptide (human); ARYKRKLLINDFG"}
{"Variant": "ARVKRKLLINDFG [Y3V]", "normalised enrichment score": 1.18}
{"Variant": "KRYKRKLLINDFG [A1K]", "normalised enrichment score": 0.0258}
{"Variant": "ARYKDKLLINDFG [R5D]", "normalised enrichment score": 0.365}
{"Variant": "AAYKRKLLINDFG [R2A]", "normalised enrichment score": 0.409}
{"Variant": "ARYKRKLLINQFG [D11Q]", "normalised enrichment score": 1.32}
{"Variant": "TRYKRKLLINDFG [A1T]", "normalised enrichment score": 1.46}
{"Variant": "ARYTRKLLINDFG [K4T]", "normalised enrichment score": -0.0992}
{"Variant": "ARPKRKLLINDFG [Y3P]", "normalised enrichment score": 0.0704}
{"Variant": "ARYKVKLLINDFG [R5V]", "normalised enrichment score": 0.872}
{"Variant": "HRYKRKLLINDFG [A1H]", "normalised enrichment score": 0.205}
{"Variant": "ARYKRKLLINDFK [G13K]", "normalised enrichment score": 0.243}
{"Variant": "ARYKQKLLINDFG [R5Q]", "normalised enrichment score": -0.247}
{"Variant": "ASYKRKLLINDFG [R2S]", "normalised enrichment score": -0.105}
{"Variant": "ARYKRKLLVNDFG [I9V]", "normalised enrichment score": 0.83}
{"Variant": "ARYKRKLLINDPG [F12P]", "normalised enrichment score": 0.28}
{"Variant": "ARYKRKLLINDWG [F12W]", "normalised enrichment score": 0.398}
{"Variant": "NRYKRKLLINDFG [A1N]", "normalised enrichment score": 0.914}
{"data": "Single results of other studies"}
{"Molecule": "PhoQ, residues 284 288 289 292 302 303 QWGLFV", "target": "PhoP, residues 12 14 15 18 19 NMSFL (Escherichia coli, UniProt P23836)", "assay": "Sort-seq, refers to: YFP reporter", "system": "E. coli", "setting": "PhoQ-PhoP variant library, added: 10 µM Mg2+", "scale": "reference: high Mg2+ state, higher = stronger signaling", "endpoint": "fold induction", "result": 2.53}
